Published values pooled from the literature.

Structure (SMILES) | organism | test | system | conditions | MIC
CC1(C)S[C@@H]2[C@H](NC(=O)[C@H](N)c3ccccc3)C(=O)N2[C@H]1C(=O)O | Staphylococcus cohnii | broth microdilution | L5 | 18 h | 8 µg/mL
CNC(C)C1CCC(N)C(OC2C(N)CC(N)C(OC3OCC(C)(O)C(NC)C3O)C2O)O1 (stereo not drawn) | Pseudomonas aeruginosa |  | clinical isolate RKI-No_615/15 |  | > 8 µg/mL
CC(C)(O/N=C(\C(=O)N[C@@H]1C(=O)N2C(C(=O)[O-])=C(C[n+]3ccccc3)CS[C@H]12)c1csc(N)n1)C(=O)O | Proteus mirabilis | broth microdilution |  | 18 h | 0.5 µg/mL
CC1(C)SC2C(NC(=O)C(NC(=O)C3=C(O)C4(CC4)NC3=O)c3ccccc3)C(=O)N2C1C(=O)O (stereo not drawn) | Escherichia coli | broth microdilution | BW25113 wild type | 18 h | 50 µg/mL
CO[C@H]1/C=C/O[C@@]2(C)Oc3c(C)c(O)c4c(O)c(c(/C=N/N5CCN(C)CC5)c(O)c4c3C2=O)NC(=O)/C(C)=C\C=C\[C@H](C)[C@H](O)[C@@H](C)[C@@H](O)[C@@H](C)[C@H](OC(C)=O)[C@@H]1C | Proteus mirabilis | broth microdilution |  | 18 h | 64 µg/mL
CN(C)[C@@H]1C(O)=C(C(N)=O)C(=O)[C@@]2(O)C(O)=C3C(=O)c4c(O)cccc4[C@@](C)(O)[C@H]3C[C@@H]12 | Staphylococcus cohnii | broth microdilution | L5 | 18 h | > 128 µg/mL
C[C@H]1[C@H](NC(=O)/C(=N\OC(C)(C)C(=O)O)c2csc(N)n2)C(=O)N1S(=O)(=O)O | Proteus mirabilis | agar dilution | ATCC 49565 susceptible |  | ≤ 0.03 µg/mL
CN(C)c1cc(NC(=O)c2ccccn2)c(O)c2c1C[C@H]1C[C@H]3[C@H](N(C)C)C(O)=C(C(N)=O)C(=O)[C@@]3(O)C(O)=C1C2=O | Mycobacterium tuberculosis | cell growth, broth microdilution | H37Rv, 7H9/ADG medium | 7 days, pH 7.4, 37 °C | > 200 µg/mL
CC1(C)S[C@@H]2[C@H](NC(=O)[C@H](N)c3ccccc3)C(=O)N2[C@H]1C(=O)O | Proteus mirabilis | broth microdilution |  | 18 h | 128 µg/mL
COc1cc(Cc2cnc(N)nc2N)cc(OC)c1OC | Staphylococcus cohnii |  | L5 | 18 h | 64 µg/mL
CC1(C)S[C@@H]2[C@H](NC(=O)[C@H](N)c3ccccc3)C(=O)N2[C@H]1C(=O)O | Pseudomonas aeruginosa |  | clinical isolate RKI-No_496/15 |  | > 16 µg/mL
CC(=O)NC[C@H]1CN(c2ccc(N3CCOCC3)c(F)c2)C(=O)O1 | Staphylococcus aureus | broth microdilution | vancomycin-resistant VRS4 |  | 4 µM
